Published values collected from several papers.
Each numbered part is a random draw from the data of one study; scales do not carry over between parts.

Block 1
Target: Serine/threonine-protein kinase PAK 5 (PAK5, Homo sapiens, UniProt Q9P286)
UniProt Q9P286, sequence (whole entry, looked up): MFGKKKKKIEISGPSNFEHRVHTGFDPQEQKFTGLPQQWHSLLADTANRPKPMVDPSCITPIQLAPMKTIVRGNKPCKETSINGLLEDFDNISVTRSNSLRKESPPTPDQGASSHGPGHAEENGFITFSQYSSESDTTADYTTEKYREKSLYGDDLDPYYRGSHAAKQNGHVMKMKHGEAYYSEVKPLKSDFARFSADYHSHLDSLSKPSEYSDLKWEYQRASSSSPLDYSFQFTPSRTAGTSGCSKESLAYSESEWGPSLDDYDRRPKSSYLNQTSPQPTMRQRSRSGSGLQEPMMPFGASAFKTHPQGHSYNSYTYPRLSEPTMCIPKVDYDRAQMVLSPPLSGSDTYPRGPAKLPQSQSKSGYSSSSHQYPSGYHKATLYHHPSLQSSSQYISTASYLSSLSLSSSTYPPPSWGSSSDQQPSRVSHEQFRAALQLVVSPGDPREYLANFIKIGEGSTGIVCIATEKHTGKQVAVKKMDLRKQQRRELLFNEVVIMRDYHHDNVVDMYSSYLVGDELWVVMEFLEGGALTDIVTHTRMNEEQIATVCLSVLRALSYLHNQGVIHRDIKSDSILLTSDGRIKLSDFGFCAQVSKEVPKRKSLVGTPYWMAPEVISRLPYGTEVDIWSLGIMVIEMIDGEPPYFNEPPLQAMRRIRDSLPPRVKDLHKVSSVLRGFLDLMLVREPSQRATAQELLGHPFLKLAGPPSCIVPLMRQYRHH
Read-out: enzyme activity
Mode: inhibitor
Tested at: 0.5 µM
Reference: control
`Cc1cc2ncc(-c3ccccc3)nc2cc1C` has a remaining activity of 96.9%.
`COc1cc2c(cc1OC)-c1[nH]nc(Nc3cccc(F)c3)c1C2` has a remaining activity of 93.2%.
The remaining activity of `CCN(CC)CCNC(=O)c1c(C)[nH]c(/C=C2\C(=O)Nc3ccc(F)cc32)c1C` is reported as 81.6%.
The remaining activity of `c1ccc(-c2[nH]ncc2-c2ccnc3ccccc23)nc1` is reported as 97.1%.
For `Cc1nc2cc3nc(-c4cccs4)cnc3cc2n1C`, the remaining activity was 114%.
For `O=C(Nc1cccc(Nc2nccc(Nc3cccc(C(F)(F)F)c3)n2)c1)C1CC1`, the remaining activity was 89.2%.
The remaining activity of `Nc1cccc(-c2cc3c(Oc4cccc(O)c4)ncnc3[nH]2)c1` is reported as 86.9%.
`O=c1cc(-c2cccc3c2Sc2ccccc2S3)oc(N2CCOCC2)c1` gave a remaining activity of 98.8%.
For `O=C1C(Cl)=C(N2C(=O)CCC2=O)C(=O)c2ccccc21`, the remaining activity was 108%.
With `O=C(NC(NC(=S)Nc1ccc(F)c([N+](=O)[O-])c1)C(Cl)(Cl)Cl)C(c1ccccc1)c1ccccc1` (stereo not drawn) the remaining activity was 104%.
For `C[C@@H]1CCN(C(=O)CC#N)C[C@@H]1N(C)c1ncnc2[nH]ccc12`, the remaining activity was 93.6%.
The remaining activity of `CCN(CC)CCNC(=O)c1c(C)[nH]c(/C=C2\C(=O)Nc3ccc(Cl)cc32)c1C` is reported as 58.9%.

Block 2
SMILES: CC(C)n1cnc(-c2ccc(F)cc2)c1-c1ncc(C(=O)Nc2ccc(N3CCN(C)CC3)cc2)[nH]1
Technique: phase 2a clinical trial
Host: patients with idiopathic pulmonary fibrosis
For measured: electrocardiogram T wave abnormal; 60 mg once daily, Grade 3: “patients with treatment-emergent adverse events” read 0%.
For measured: drug-induced liver injury; dose not given, Grade 1, all drug arms total: “patients with treatment-emergent adverse events” read 0%.
It gave 0% for “patients with treatment-emergent adverse events” (measured: lumbar vertebral fracture; 30 mg once daily, Grade 2, maximum intensity).
It gave 0% for “patients with treatment-emergent adverse events” (measured: investigations (SOC); 30 mg once daily, Grade 2).
measured: idiopathic pulmonary fibrosis; dose not given, Grade 4, all drug arms — “patients with treatment-emergent adverse events”: 0%.
It gave 0% for “patients with treatment-emergent adverse events” (measured: carbon dioxide decreased; dose not given, Grade 4, all drug arms total).
For measured: lumbar vertebral fracture; dose not given, Grade 4, maximum intensity, all drug arms total: “patients with treatment-emergent adverse events” read 0%.
It gave 0% for “patients with treatment-emergent adverse events” (measured: interstitial lung disease; dose not given, Grade 4, all drug arms).
It gave 0% for “patients with treatment-emergent adverse events” (measured: aspartate aminotransferase increased; dose not given, Grade 4, all drug arms total).
The “patients with treatment-emergent adverse events” was 0% (measured: left ventricular dysfunction; 30 mg once daily, Grade 4).
It gave 0% for “patients with treatment-emergent adverse events” (measured: hepatic function abnormal; 60 mg once daily, Grade 5).
For measured: protein urine present; dose not given, Grade 3, all drug arms total: “patients with treatment-emergent adverse events” read 0%.

Block 3
Cell line: patient-derived normal-adjacent epithelium organoids
Tested at: 1 µM
Reference: DMSO control
`CC(=O)N1CCC(c2ccc(C(=O)NC3=NCCN3)cc2C(F)(F)F)CC1` has a viability of 93.9%.
With `Cc1nc(N2CC[C@@H](O)C2)ncc1-c1cc(C(F)(F)F)cc2[nH]ncc12` the viability was 99.6%.
`COc1cc(-c2cn(C3CCc4c(F)cccc4N(CC(F)(F)F)C3=O)nn2)ccc1-n1cnc(C)c1` (stereo not drawn) gave a viability of 106%.
For `CC(=O)Nc1c(C(C)=O)c(=O)n(C)c2nc(-c3ccc(Cl)cc3Cl)c(-c3ccc(Cl)cc3)cc12`, the viability was 107%.
The viability of `C[C@@H](NC(=O)Nc1cc2[nH]ncc2c(CO)n1)c1ccccc1` is reported as 94.9%.
For `CN([C@@H]1CCc2c(CC(=O)O)c3ccccc3n2C1)S(=O)(=O)c1ccc(F)cc1`, the viability was 129%.
For `COc1cc(-c2cn(C3CCc4ccccc4N(CC(F)(F)F)C3=O)nn2)ccc1-n1ccc(C)n1` (stereo not drawn), the viability was 83.4%.
`c1ccc(N2CCN(Cc3nc4ccccc4[nH]3)CC2)nc1` gave a viability of 116%.
For `Cc1noc([C@H]2C[C@@H](c3ccc(C(F)(F)F)cc3)CN(C(=O)N3CCS(=O)(=O)C3)C2)n1`, the viability was 112%.
For `CN1CCN(Cc2ccc(Nc3ncc(Cl)c(Nc4ccccc4S(=O)(=O)N(C)C)n3)cc2)CC1`, the viability was 0.9%.
The viability of `O=C(N1CCS(=O)(=O)CC1)N1C[C@H](c2ccc(OC(F)(F)F)cc2)C[C@H](c2nc(C3CC3)no2)C1` is reported as 106%.
With `Cc1cn(-c2cc(NC(=O)c3ccc4c(c3)CN(c3cncnc3)C[C@@H]4C)cc(C(F)(F)F)c2)cn1` the viability was 77.6%.
With `CC1=C(C#N)C(c2ccc3[nH]nc(C)c3c2)C(C#N)=C(C)N1` the viability was 107%.
For `O=C1NC(c2ccccn2)Sc2ccccc21` (stereo not drawn), the viability was 107%.
For `CCNC(=O)c1cc2c(N3CCOC[C@@H]3C)ccnc2[nH]1`, the viability was 114%.
For `O=c1nc(-c2ccccn2)sc2ccccc12`, the viability was 128%.
`C[C@H](NC(=O)Nc1cc2[nH]ncc2c(CO)n1)c1ccccn1` has a viability of 91%.
With `CC(=O)N1CCC(c2ccc(C(=O)NC(=N)N)cc2C(F)(F)F)CC1` the viability was 113%.
With `CC(=O)c1c(NS(C)(=O)=O)c2cc(-c3ccc(Cl)cc3)c(-c3ccc(Cl)cc3Cl)nc2n(C)c1=O` the viability was 94%.

Block 4
SMILES: CC(C)(C)c1cnc(CSc2cnc(NC(=O)C3CCN(CCCCCSc4cccc5c4CN(C4CCC(=O)NC4=O)C5=O)CC3)s2)o1 (stereo not drawn)
Target: Cyclin-dependent kinase 9 (CDK9, Homo sapiens, UniProt P50750)
UniProt P50750, sequence (whole entry, looked up): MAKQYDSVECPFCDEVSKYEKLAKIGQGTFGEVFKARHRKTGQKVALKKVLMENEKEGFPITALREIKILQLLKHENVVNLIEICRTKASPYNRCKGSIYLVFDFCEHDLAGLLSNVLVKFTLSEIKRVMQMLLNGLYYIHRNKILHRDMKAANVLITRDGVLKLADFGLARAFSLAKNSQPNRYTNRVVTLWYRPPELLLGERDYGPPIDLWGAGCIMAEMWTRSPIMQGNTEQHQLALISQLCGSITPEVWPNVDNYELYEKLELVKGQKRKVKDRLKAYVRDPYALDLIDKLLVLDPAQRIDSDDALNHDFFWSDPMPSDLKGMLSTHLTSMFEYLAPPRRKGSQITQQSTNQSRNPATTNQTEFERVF
Cell line: HuT78
Time: 10 h
For 0.05 µM: remaining activity read 24.5%.
It gave 47.8% for remaining activity (0.01 µM).
The remaining activity was 75.9% (0.001 µM).
0.1 µM — remaining activity: 23.3%.
It gave 38% for remaining activity (0.025 µM).

Some of these lines once more (block 3):
For `Cc1noc([C@H]2C[C@@H](c3ccc(C(F)(F)F)cc3)CN(C(=O)N3CCS(=O)(=O)C3)C2)n1`, the viability was 112%.
The viability of `C[C@@H](NC(=O)Nc1cc2[nH]ncc2c(CO)n1)c1ccccc1` is reported as 94.9%.
For `CN1CCN(Cc2ccc(Nc3ncc(Cl)c(Nc4ccccc4S(=O)(=O)N(C)C)n3)cc2)CC1`, the viability was 0.9%.
For `O=c1nc(-c2ccccn2)sc2ccccc12`, the viability was 128%.
